Measurements of several laboratories.
Each numbered part is a random draw from the data of one study; scales do not carry over between parts.

Study 1 — method: protein-binding microarray; form: double-stranded DNA, one strand shown; medium: in vitro; tested at: 940 nM top; notes: 60-bp whole probe; together with: salmon DNA 0.4 mg/ml; baseline: random background probes; reading: higher = stronger binding; endpoint: fitted relative affinity; all sequences stand within: GCCTAGCAC … GTCTTGATTCGCTTGACGCTGCTG
Target: Interferon regulatory factor 5, full length, phosphomimetic (IRF5, Homo sapiens, UniProt Q13568-2, residues 1-514, S451D/S453D/S456D/S462D)
TTCGAACTGAGTTTCGATTAGTGCTAG: 8.81 z-score
CTAGGTCTCGGACTGGGTTAGTGCTAG: 0.429 z-score
AGAGCTCTGGCACCTCTAGACGTGCTA: -0.812 z-score
TTAGATTTCGGGTATCGCTTAGTGCTA: 2.18 z-score
TCATATATTATATATACAACTGTGCTA: 0.372 z-score
TCAGCTGTTTTTCTCACCACGTGCTAG: 0.9 z-score
ATAGATCTCAGTCTCGATTAGTGCTAG: 3.26 z-score
TCATTCATGAAATTTTAGACTGTGCTA: 0.0098 z-score
TCAGGTATCGACTTTCGGTTAGTGCTA: 5.92 z-score
TTAGGACTCCTTATCCTTTAGTGCTAG: -0.00664 z-score
TTAGGACTGCTTCTTCTTTAGTGCTAG: 0.00111 z-score
TCAGAATTCAGAATGGGACTGTGCTAG: -0.302 z-score
TCAGCCCTCCCTGTGGGACTGTGCTAG: -0.614 z-score
GACGGTATCCTACTGCCGACGTGCTAG: 0.348 z-score
GACGGACTGCTTCTCTTGACGTGCTAG: -0.0341 z-score
GACGAACTAAGTCTCGAGACGTGCTAG: 0.51 z-score
GACGAACTGAAACTGGAGACGTGCTAG: 0.536 z-score
TCAGTTCTCCCTTTCAGACTGTGCTAG: 1.05 z-score
TTAGGTCTCGGTATCCGTTAGTGCTAG: 4.98 z-score

Study 2 — method: RNA Bind-n-Seq; form: RNA; medium: in vitro; tested at: 200 nM; notes: whole 134-nt RNA, ends assumed; together with: 150 mM LiCl; baseline: input library; reading: higher = stronger binding; endpoint: log2 enrichment; all molecules: 7-deaza-guanosine replaces G
Target: Ras GTPase-activating protein-binding protein 1, full length (G3BP1, Homo sapiens, UniProt Q13283)
Sequence of UniProt Q13283 (whole entry, looked up): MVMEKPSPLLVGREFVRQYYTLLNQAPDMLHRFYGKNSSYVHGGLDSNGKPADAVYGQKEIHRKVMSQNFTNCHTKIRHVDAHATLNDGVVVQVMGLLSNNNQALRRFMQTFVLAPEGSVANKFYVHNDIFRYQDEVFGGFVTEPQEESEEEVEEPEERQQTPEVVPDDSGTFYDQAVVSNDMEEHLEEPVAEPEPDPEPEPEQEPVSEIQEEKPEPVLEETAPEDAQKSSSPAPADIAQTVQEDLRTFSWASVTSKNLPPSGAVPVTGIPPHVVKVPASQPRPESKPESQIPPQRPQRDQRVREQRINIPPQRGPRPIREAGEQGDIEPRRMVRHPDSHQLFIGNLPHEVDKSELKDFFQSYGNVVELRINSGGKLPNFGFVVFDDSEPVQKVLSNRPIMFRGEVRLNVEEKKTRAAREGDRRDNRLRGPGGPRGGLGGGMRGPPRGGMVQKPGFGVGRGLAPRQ
All sequences stand within: GGGAGUUCUACAGUCCGACGAUC … UGGAAUUCUCGGGUGUCAAGG
UGGGAGGUGGAUUUUGUUUAUUUUCUUAGCUCAUUUCCAGGGGUGGGAAUUUUUUUUUAAUAUGUGUCAUGAAUAAAGUUGUUUUUGAAA: -0.738
AGUCCUGUGCUACACAUCGUAUGUACCGAAUCGGGGAAAAGGGAAAAGGGAAAAGGGGAAAGUAUUAUGUUACGCCGUUCGGAUCUGCAC: 0.19
UACAGGAGCUUCCUGGGACUGACCUGCCUGAUGCAAAUUUCUACUCGGACGGAAGACUUCAUCAUUGACACCCUCGAGCUUCGAAGUGAC: -1.13
UGCUCUUCACCAAGGAGGACGAGCCUGGCCGCUGCGACGUCCUGAGGAACCCCCUCUACCUCCAGAGUGUGAAGCUGCAGGAAGGUAAGC: -0.0388
CUGUGCUACACAUCGUAUGUACCGAAUCGGGGUUUUUUUGGGGUUUUUGGGGAAAAAGGGGAAAGUAUUAUGUUACGCCGUUCGGAUCUG: 0.611
CCUCAAGUCCUGUGCUACACAUCGUAUGUACCGAAUCGGAAAGGUGGAAAGGAAAGUAUUAUGUUACGCCGUUCGGAUCUGCACUUCCAG: 0.166
AGUCCUGUGCUACACAUCGUAUGUACCGAAUCGGGCCCCGGGCCCCGGGGCCCCGGGGAAAGUAUUAUGUUACGCCGUUCGGAUCUGCAC: -2.6
UCAAGUCCUGUGCUACACAUCGUAUGUACCGAAUCGGUUUUUUUGGUUUGGUGGAAAGUAUUAUGUUACGCCGUUCGGAUCUGCACUUCC: -0.7

Study 3 — method: universal PBM; form: double-stranded DNA, one strand shown; medium: in vitro; tested at: not given; reading: higher = stronger binding; endpoint: E-score
Target: Sal-like protein 4, full length isoform B (SALL4, Homo sapiens, UniProt Q9UJQ4-2, residues 1-616)
Notes: 8-mer, flanks averaged, mean of replicates
GAACGTTC: -0.0797
TAGGATCA: -0.0569
AGCTAGGC: -0.214
CTCGCAGC: -0.221
CACGGCCC: -0.279
ACCGTGAA: -0.175
GACTGAGA: -0.0349
CAAGTATC: 0.0194
CAACACAA: 0.0898
TATTCTCA: 0.167
AAGGCATC: -0.154
CTTTAGAA: 0.231
AATCCTGC: -0.0446
GCGCGAAA: 0.0722
CAAACCTG: -0.101
ACGCTCTG: -0.177
AGACAGGC: -0.193
AACAAATT: 0.305
CAATCCTA: -0.0059
AACATTTA: 0.315
CCAGATGA: -0.029
ACGTGCGA: -0.168
GACTACTC: -0.127
AACAGCCC: -0.198
ATCAACCC: 0.077

Study 4 — method: aptamer microarray, sandwich; form: DNA with 2'F-ANA; medium: in vitro; tested at: 200 nM; together with: Cy3 exosite-II aptamer, 400 nM; reading: higher = stronger binding; endpoint: mean fluorescence intensity; oligonucleotide: GGTTGGTGTGGTTGG
Target: Prothrombin, mature alpha-thrombin (F2, Homo sapiens, UniProt P00734)
Notes: whole 15-mer aptamer, many near background
2'F-ANA at 8 11 12 13 14 15: 334 a.u.
2'F-ANA at 2 3 6 9 11 15: 646 a.u.
2'F-ANA at 1 2 3 4 7 8 9 10 13 14: 48.8 a.u.
2'F-ANA at 2 3 4 5 7 8 9 10 11 14 15: 51.3 a.u.
2'F-ANA at 1 2 3 8 9 12 13 15: 409 a.u.
2'F-ANA at 4 6 8 14 15: 94.3 a.u.
2'F-ANA at 1 4 5 6 9 11 12 13 14: 54 a.u.
2'F-ANA at 1 2 3 10 11 13 14: 50.5 a.u.
2'F-ANA at 1 2 3 4 7 9 12 13 14 15: 73.7 a.u.
2'F-ANA at 1 5 6 7 8 10: 72.9 a.u.
2'F-ANA at 1 3 4 7 12 13 14: 84.3 a.u.
2'F-ANA at 7 8 10 13 14 15: 135 a.u.
2'F-ANA at 3 6 8 9 10: 536 a.u.
2'F-ANA at 1 2 4 6 8 9 10 11 12: 54.7 a.u.
2'F-ANA at 2 3 6 7 8 9 11 13 15: 534 a.u.
2'F-ANA at 1 2 5 6 7 9 12 13 15: 72.8 a.u.
2'F-ANA at 3 4 5 6 8 9 10 13 15: 49.9 a.u.
2'F-ANA at 2 5 6 8 10 12 13 14: 42.6 a.u.
2'F-ANA at 1 4 5 6 7 8 11 12: 93.4 a.u.
2'F-ANA at 1 2 6 7 9 10 11 12 14: 64.1 a.u.
2'F-ANA at 1 6 7 10 11 12 13 14 15: 52.3 a.u.
2'F-ANA at 1 2 3 6 7 10 11 12: 76.8 a.u.
2'F-ANA at 3 5 7 8 9 10 11 13 14: 112 a.u.

A few entries again (study 1):
TCATTCATGAAATTTTAGACTGTGCTA: 0.0098 z-score
ATAGATCTCAGTCTCGATTAGTGCTAG: 3.26 z-score
GACGGACTGCTTCTCTTGACGTGCTAG: -0.0341 z-score
TCAGCCCTCCCTGTGGGACTGTGCTAG: -0.614 z-score
AGAGCTCTGGCACCTCTAGACGTGCTA: -0.812 z-score
CTAGGTCTCGGACTGGGTTAGTGCTAG: 0.429 z-score
TCAGTTCTCCCTTTCAGACTGTGCTAG: 1.05 z-score
